Results from different studies.
Each line is one published result; not all experiments were run side by side.
JAK3 JH1: Tyrosine-protein kinase JAK3, JH1 (JAK3, Homo sapiens, UniProt P52333)
JAK3: Tyrosine-protein kinase JAK3 (JAK3, Homo sapiens, UniProt P52333)

COc1cc(Nc2nccc(-c3cnn4nc(OC)ccc34)n2)cc(C(F)(F)F)c1  remaining binding (JAK3 JH1; binding, competition with immobilised ligand; 1 µM): 87%
CNC(=O)C1CCN(c2cc(C)c(F)cc2NC(=O)c2ccc(-c3cc(O)ccc3C)c(C)c2)CC1  remaining binding (JAK3 JH1; binding, competition with immobilised ligand; 1 µM): 100%
Cc1cccc(O[C@H]2CCC[C@@H](C(C)CNCc3ccncc3)C2)c1 (relative stereo)  inhibition (JAK3; enzyme activity, inhibitor; 1 µM): 2%
NC(=O)[C@@H](O)C[C@H]1CCc2sc3ncnc(O[C@H]4CC[C@H](N5CCOCC5)CC4)c3c21  inhibition (JAK3; enzyme activity, inhibitor; 10 µM): 8%
Cc1cnc2nc1Nc1cccc(c1)COC/C=C/COCc1cc(ccc1OCCN1CCOCC1)N2  remaining signal (JAK3 JH1; cell-free assay; 0.1 µM): 9.6%
C[C@H](c1ccccc1)N1C(=O)C2=Nc3cccc(Cl)c3CN2C1=S  inhibition (JAK3; enzyme activity, inhibitor; 1.5 µM): ≥ 85%
O=C=[N][Ru-4]123([n]4c5ccc(O)cc5c5c6c(c7cc(F)c[n+]1c7c54)C(=O)NC6=O)[S+]1CC[S+]2CC[S+]3CC1 (stereo not drawn)  remaining activity (JAK3; enzyme activity; 100 nM, human enzyme, with: 10 µM ATP; reference: untreated): 103%
Cc1nc2c(F)cc(-c3nc(Nc4ccc(CNC(=O)CCCCCCC(=O)NO)cc4)ncc3F)cc2n1C(C)C  inhibition (JAK3; enzyme activity, inhibitor; 1 µM): 97%
C=CC(=O)N1CCc2ccc(-n3c(=O)ccc4cnc5ccc(-c6cnn(C)c6)cc5c43)cc21  remaining binding (JAK3; KINOMEscan; 1 µM; reference: DMSO control): 60%
CNC(=O)C[C@H](Cc1ccc(C#N)cc1)NC(=O)c1cc(-c2ccc(CN[C@H](C)c3ccc(C)cc3)o2)ccc1Cl  activity vs control (JAK3; enzyme activity, inhibitor; 1 µM): 104%
COc1c(Cl)cccc1Nc1c(-c2ccncc2C#C[C@@]2(C)CCCN2C(=O)/C=C/CN(C)C)[nH]c2c1C(=O)NCC2  remaining binding (JAK3 JH1; cell-free assay, competition with immobilised ligand; 3 µM): 75%
C=CC(=O)Nc1cccc(-c2cnc3[nH]cc(C(=O)NC(C)(C)C)c3n2)c1  inhibition (JAK3; enzyme activity, inhibitor; 0.1 µM): 99%
Cc1c[nH]c2nccc(-c3ccc(C(=O)N[C@@H]4c5c(F)cc(C(F)F)cc5C[C@@H]4O)cn3)c12  remaining binding (JAK3 JH1; binding, competition with immobilised ligand; 3 µM): 7%
C=CC(=O)N1Cc2nc(-c3cc(-c4cc(Cl)cnc4Cl)c(F)cc3F)n(-c3ccncn3)c2C1  inhibition (JAK3; cell-free assay, inhibitor; 1 µM): > 50%
CC(=O)N1c2ccc(-c3ccc(CNC(=O)c4cn5cc(-c6cnc(N)nc6)nc(N6CCOCC6)c5n4)cc3)cc2CC[C@@H]1C  remaining binding (JAK3; KINOMEscan; 10 µM): 100%
COc1c(OCCCN2CCOCC2)ccc2c1N=C(NC(=O)c1cnc(N)nc1)N1CCN=C21  remaining activity (JAK3; kinase activity, inhibitor; 1 µM; reference: untreated control): 112%
CN1CCN(Cc2ccc(NC(=O)c3cccc(C#Cc4cnc(N)c5ncccc45)c3)cc2C(F)(F)F)CC1  remaining binding (JAK3 JH1; cell-free assay, competition with immobilised ligand; 0.5 µM): 8.3%
COc1ccc(NC(=O)Nc2ccc3c(c2)C(=O)N(C(C)CO)CC(C)C(CN(C)Cc2ccc4c(c2)OCO4)O3)cc1 (stereo not drawn)  remaining activity (JAK3; kinase activity, KinaseProfiler; 0.03 µM, species human; reference: control): 95%
COc1ccc(O)cc1-c1c[nH]c2ncc(-c3cncc(C(=O)N(C)C)c3)cc12  inhibition (JAK3; binding, competition with immobilised ligand; 0.2 µM): 69.3%
Cc1ccc(-c2c(/C=C(\C#N)C(=O)NC(C)C)n(CCCO)c3ncnc(N)c23)cc1  remaining binding (JAK3 JH1; cell-free assay, competition with immobilised ligand; 1 µM): 97%
CN1CC[C@@H](COc2cnc(C#N)cc2-c2ccn3nc(NC(=O)C4CC4)cc3c2)C1  inhibition (JAK3; enzyme activity, inhibitor; 1 µM): 28%
